Assay results pooled from the literature.
A part holds a random share of what one study measured.
Sequence of UniProt Q99755 (whole entry, looked up): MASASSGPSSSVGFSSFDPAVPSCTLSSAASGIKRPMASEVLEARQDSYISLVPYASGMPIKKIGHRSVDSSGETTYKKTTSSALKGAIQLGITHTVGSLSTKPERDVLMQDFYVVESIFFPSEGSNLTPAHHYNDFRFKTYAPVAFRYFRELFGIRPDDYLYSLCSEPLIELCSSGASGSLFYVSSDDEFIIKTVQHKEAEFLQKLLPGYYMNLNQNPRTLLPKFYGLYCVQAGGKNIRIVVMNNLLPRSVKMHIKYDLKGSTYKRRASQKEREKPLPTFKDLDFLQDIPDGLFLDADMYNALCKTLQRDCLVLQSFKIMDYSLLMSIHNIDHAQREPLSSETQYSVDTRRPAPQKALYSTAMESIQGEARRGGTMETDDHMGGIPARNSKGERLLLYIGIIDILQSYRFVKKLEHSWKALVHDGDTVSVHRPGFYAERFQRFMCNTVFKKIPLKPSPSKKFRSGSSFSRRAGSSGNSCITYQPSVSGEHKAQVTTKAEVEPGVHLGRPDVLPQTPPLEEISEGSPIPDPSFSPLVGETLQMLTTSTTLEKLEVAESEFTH
Sequence of UniProt P14616 (whole entry, looked up): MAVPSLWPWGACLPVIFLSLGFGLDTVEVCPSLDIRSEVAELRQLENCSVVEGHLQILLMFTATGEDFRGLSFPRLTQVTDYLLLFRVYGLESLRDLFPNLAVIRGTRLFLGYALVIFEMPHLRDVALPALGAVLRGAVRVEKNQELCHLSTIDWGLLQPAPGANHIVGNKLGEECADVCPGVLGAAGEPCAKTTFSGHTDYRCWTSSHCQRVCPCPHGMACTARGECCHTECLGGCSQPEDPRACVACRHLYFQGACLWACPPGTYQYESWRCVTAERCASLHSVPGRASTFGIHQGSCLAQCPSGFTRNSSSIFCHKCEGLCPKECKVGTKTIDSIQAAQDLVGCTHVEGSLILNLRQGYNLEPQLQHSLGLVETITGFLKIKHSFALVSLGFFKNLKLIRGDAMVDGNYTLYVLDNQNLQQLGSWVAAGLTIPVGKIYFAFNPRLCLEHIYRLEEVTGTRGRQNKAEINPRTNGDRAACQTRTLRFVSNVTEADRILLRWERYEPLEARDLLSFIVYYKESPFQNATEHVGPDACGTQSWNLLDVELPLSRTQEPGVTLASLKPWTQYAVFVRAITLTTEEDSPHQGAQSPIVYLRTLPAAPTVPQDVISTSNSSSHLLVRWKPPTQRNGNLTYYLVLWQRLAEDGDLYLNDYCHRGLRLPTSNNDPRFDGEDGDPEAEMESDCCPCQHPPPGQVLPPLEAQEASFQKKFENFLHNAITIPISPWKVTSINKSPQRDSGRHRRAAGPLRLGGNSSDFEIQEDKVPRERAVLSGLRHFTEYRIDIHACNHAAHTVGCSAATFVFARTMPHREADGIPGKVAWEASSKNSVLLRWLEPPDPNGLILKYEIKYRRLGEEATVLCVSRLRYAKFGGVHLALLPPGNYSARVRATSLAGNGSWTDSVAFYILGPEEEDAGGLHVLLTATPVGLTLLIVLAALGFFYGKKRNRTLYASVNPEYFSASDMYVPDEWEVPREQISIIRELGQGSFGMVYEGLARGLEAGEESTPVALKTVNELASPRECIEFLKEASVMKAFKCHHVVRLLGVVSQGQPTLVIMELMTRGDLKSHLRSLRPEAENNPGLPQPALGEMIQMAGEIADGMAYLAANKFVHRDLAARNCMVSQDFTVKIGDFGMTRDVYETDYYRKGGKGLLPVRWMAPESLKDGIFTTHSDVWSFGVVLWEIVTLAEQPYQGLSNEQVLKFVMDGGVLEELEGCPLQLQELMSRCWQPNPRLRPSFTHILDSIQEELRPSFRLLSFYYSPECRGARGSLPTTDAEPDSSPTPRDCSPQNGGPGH
Sequence of UniProt O75914 (whole entry, looked up): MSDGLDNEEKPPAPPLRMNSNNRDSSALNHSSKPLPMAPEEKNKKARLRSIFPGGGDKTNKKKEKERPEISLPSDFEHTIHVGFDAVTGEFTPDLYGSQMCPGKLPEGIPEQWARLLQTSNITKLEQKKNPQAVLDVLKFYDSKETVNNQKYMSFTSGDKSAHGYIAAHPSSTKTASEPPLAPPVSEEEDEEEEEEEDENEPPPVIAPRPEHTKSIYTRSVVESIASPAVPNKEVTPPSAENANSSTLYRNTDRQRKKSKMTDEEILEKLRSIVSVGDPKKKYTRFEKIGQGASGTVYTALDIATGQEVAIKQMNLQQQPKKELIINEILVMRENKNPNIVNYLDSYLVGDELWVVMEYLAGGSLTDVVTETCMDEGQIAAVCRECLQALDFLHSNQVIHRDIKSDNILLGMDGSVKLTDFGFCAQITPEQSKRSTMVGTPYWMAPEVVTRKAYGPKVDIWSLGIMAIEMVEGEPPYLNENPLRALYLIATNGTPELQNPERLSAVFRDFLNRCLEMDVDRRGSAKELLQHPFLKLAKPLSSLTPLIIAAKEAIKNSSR
Sequence of UniProt O00238 (whole entry, looked up): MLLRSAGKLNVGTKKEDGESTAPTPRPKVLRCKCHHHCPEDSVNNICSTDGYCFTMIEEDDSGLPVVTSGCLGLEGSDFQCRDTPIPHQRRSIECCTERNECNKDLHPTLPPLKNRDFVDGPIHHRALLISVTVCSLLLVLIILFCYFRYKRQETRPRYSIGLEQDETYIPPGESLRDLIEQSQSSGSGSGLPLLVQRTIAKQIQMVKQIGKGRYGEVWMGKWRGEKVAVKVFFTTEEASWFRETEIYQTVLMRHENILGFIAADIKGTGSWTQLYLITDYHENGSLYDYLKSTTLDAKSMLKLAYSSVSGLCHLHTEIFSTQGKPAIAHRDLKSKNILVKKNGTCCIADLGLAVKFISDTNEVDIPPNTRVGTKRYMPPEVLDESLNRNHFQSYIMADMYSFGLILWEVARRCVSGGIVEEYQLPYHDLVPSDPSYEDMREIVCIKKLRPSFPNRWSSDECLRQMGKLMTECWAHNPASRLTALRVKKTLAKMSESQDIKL
Sequence of UniProt P68400 (whole entry, looked up): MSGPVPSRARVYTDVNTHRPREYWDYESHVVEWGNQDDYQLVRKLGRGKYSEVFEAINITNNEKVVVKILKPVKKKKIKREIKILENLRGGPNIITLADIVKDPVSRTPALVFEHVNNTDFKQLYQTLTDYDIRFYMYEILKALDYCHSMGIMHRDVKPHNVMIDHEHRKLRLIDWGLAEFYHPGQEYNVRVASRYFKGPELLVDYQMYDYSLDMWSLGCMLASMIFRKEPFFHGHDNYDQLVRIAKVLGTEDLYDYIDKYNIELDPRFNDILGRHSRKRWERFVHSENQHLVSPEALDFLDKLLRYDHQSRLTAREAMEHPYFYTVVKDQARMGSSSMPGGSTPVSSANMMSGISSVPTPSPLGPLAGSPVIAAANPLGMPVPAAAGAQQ
Sequence of UniProt Q16513 (whole entry, looked up): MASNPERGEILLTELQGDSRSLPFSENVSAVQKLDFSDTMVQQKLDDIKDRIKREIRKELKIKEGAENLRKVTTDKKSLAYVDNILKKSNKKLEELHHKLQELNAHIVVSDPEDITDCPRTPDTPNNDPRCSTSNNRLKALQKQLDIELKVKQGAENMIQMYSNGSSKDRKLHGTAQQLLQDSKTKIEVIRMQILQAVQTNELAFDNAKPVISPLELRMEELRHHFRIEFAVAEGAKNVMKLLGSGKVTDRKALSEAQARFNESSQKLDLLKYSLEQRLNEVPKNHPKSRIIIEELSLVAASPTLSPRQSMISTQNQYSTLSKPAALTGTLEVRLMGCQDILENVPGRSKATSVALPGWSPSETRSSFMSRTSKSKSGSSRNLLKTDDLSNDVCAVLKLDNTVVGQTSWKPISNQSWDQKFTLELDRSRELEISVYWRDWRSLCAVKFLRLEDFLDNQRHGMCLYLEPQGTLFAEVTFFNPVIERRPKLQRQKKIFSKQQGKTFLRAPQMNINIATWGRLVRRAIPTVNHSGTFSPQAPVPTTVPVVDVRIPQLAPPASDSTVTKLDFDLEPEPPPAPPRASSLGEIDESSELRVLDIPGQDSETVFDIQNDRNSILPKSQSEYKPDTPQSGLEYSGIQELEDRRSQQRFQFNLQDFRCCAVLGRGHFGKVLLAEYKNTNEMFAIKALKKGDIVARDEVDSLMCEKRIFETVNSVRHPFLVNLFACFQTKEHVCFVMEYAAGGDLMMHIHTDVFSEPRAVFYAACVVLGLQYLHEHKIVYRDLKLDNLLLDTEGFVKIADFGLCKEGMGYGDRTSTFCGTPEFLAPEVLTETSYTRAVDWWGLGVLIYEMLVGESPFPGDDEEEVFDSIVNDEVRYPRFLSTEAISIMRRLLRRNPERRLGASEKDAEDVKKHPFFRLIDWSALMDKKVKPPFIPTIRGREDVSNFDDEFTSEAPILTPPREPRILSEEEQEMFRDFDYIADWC

Block 1 — effect on: kinase activity; mode: inhibitor; concentration: 1 µM; endpoint: remaining activity
SMILES: CC(C)S(=O)(=O)c1ccc2nccc(Nc3ccc4sc(C5CCCC5)nc4c3)c2c1.Cl
Bone morphogenetic protein receptor type-1B (BMPR1B, Homo sapiens, UniProt O00238): 90%
Phosphatidylinositol 4-phosphate 5-kinase type-1 alpha (PIP5K1A, Homo sapiens, UniProt Q99755): 101%
Mitogen-activated protein kinase kinase kinase 20 (MAP3K20, Homo sapiens, UniProt Q9NYL2): 71%
Ribosomal protein S6 kinase beta-2 (RPS6KB2, Homo sapiens, UniProt Q9UBS0): 98%
Serine/threonine-protein kinase PAK 3 (PAK3, Homo sapiens, UniProt O75914): 95%
Insulin receptor-related protein (INSRR, Homo sapiens, UniProt P14616): 80%
Serine/threonine-protein kinase 35 (STK35, Homo sapiens, UniProt Q8TDR2): 97%
Serine/threonine-protein kinase 38-like (STK38L, Homo sapiens, UniProt Q9Y2H1): 100%
SRSF protein kinase 2 (SRPK2, Homo sapiens, UniProt P78362): 100%

Block 2 — effect on: enzyme activity; mode: inhibitor; concentration: 0.5 µM; reference: control; endpoint: remaining activity
Target: Aurora kinase B (AURKB, Homo sapiens, UniProt Q96GD4)
Sequence of UniProt Q96GD4 (whole entry, looked up): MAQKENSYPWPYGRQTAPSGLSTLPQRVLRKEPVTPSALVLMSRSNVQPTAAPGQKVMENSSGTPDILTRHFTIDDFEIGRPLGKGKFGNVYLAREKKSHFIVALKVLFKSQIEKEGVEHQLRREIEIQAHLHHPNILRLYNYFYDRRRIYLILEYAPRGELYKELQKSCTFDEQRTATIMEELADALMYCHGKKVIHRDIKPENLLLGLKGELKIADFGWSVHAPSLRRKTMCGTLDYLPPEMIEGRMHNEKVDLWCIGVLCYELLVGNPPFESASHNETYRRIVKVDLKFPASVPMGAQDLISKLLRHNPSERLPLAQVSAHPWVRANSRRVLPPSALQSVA
COc1ccc(OC)c2c(=S)c3ccccc3[nH]c12: 89.6%
Cn1c2ccccc2c2c3c(c4c5ccccc5n(CCC#N)c4c21)CNC3=O: 33.1%
NCCNc1ncc(C(N)=O)c(Nc2cccc(C(F)(F)F)c2)n1: 93.4%
OCC(O)CCON=C1C(c2c(O)[nH]c3ccccc23)=Nc2ccccc21 (centres unmarked): 27.4%
CCOC(=O)c1c(C)[nH]c(/C=C2\C(=O)Nc3ccccc32)c1C: 67.3%
CC(C)[C@H](CO)Nc1nc(Nc2cc(N)cc(Cl)c2)c2ncn(C(C)C)c2n1: 87.8%
O=S(=O)(c1cccc2cnccc12)N1CCCNCC1: 98.8%
Cn1sc(=O)n(Cc2ccccc2)c1=O: 102%
Cc1cccc(-c2[nH]c(C(C)(C)C)nc2-c2ccc3c(c2)OCO3)n1: 96.5%
CO[C@H]1C[C@@H]2CC[C@@H](C)[C@@](O)(O2)C(=O)C(=O)N2CCCC[C@H]2C(=O)O[C@H]([C@H](C)C[C@@H]2CC[C@@H](O)[C@H](OC)C2)CC(=O)[C@H](C)/C=C(\C)[C@@H](O)[C@@H](OC)C(=O)[C@H](C)C[C@H](C)/C=C/C=C/C=C/1C: 95.2%
N#CC(C#N)=C(N)/C(C#N)=C/c1ccc(O)cc1: 91%
O=C(Nc1cccc(Nc2cc(Nc3cccc(C(F)(F)F)c3)ncn2)c1)C1CC1: 98.9%
O=c1c2ccccc2[nH]c(=S)n1CCN1CCC(=C(c2ccc(F)cc2)c2ccc(F)cc2)CC1: 102%
O=C1NC(=O)C(c2cn(CCCO)c3ncccc23)=C1c1cnccn1: 101%

Block 3 — effect on: cell-free assay; concentration: 1 µM; endpoint: remaining signal
SMILES: C[C@H]1CC[C@H](n2c3cnccc3c3cnc(Nc4ccc5c(n4)CCN(C(=O)CO)C5)nc32)CC1
Microtubule-associated serine/threonine-protein kinase 1 (MAST1, Homo sapiens, UniProt Q9Y2H9): 73%
Hepatocyte growth factor receptor (MET, Homo sapiens, UniProt P08581, M1250T): 78%
Protein-tyrosine kinase 2-beta (PTK2B, Homo sapiens, UniProt Q14289): 70%
MAP/microtubule affinity-regulating kinase 3 (MARK3, Homo sapiens, UniProt P27448): 74%
Serine/threonine-protein kinase N2 (PKN2, Homo sapiens, UniProt Q16513): 40%
Casein kinase II subunit alpha (CSNK2A1, Homo sapiens, UniProt P68400): 1%
Interleukin-1 receptor-associated kinase 3 (IRAK3, Homo sapiens, UniProt Q9Y616): 12%
Serine/threonine-protein kinase BRSK2 (BRSK2, Homo sapiens, UniProt Q8IWQ3): 60%

Block 4 — effect on: cell-free assay; method: competition with immobilised ligand; concentration: 1 µM; endpoint: remaining binding
Compound: O=C(Nc1cccnn1)N1CC(C/C=C/c2cncc(Oc3ccc(C(F)(F)F)cn3)n2)C1
Mitogen-activated protein kinase kinase kinase 19 (MAP3K19, Homo sapiens, UniProt Q56UN5): 90%
Epidermal growth factor receptor (EGFR, Homo sapiens, UniProt P00533, T790M): 100%
Ribosomal protein S6 kinase alpha-2, N-terminal kinase domain (RPS6KA2, Homo sapiens, UniProt Q15349): 100%
Mitogen-activated protein kinase kinase kinase 4 (MAP3K4, Homo sapiens, UniProt Q9Y6R4): 100%
Casein kinase I isoform delta (CSNK1D, Homo sapiens, UniProt P48730): 100%
Serine/threonine-protein kinase/endoribonuclease IRE1 (ERN1, Homo sapiens, UniProt O75460): 67%
Mitogen-activated protein kinase kinase kinase 15 (MAP3K15, Homo sapiens, UniProt Q6ZN16): 81%

Excerpt of the above (block 1):
Ribosomal protein S6 kinase beta-2 (RPS6KB2, Homo sapiens, UniProt Q9UBS0): 98%
Serine/threonine-protein kinase PAK 3 (PAK3, Homo sapiens, UniProt O75914): 95%
Insulin receptor-related protein (INSRR, Homo sapiens, UniProt P14616): 80%
Serine/threonine-protein kinase 35 (STK35, Homo sapiens, UniProt Q8TDR2): 97%
